Measurements from different studies.
Protocols differ between the studies behind these lines.
Target: Rhodopsin kinase GRK1 (GRK1, Homo sapiens, UniProt Q15835)

| SMILES | test | conditions | how to read | measurement | result |
| --- | --- | --- | --- | --- | --- |
| Cc1c[nH]c2nccc(-c3ccc(C(=O)N[C@@H]4c5c(F)cc(C(F)F)cc5C[C@@H]4O)cn3)c12 | binding, competition with immobilised ligand | 3 µM |  | remaining binding | 9.3% |
| Cc1ccc(-c2c(/C=C(\C#N)C(=O)NC(C)C)n(CCCO)c3ncnc(N)c23)cc1 | cell-free assay, competition with immobilised ligand | 1 µM |  | remaining binding | 100% |
| O=C(Cc1ccc(OCc2ccccc2)cc1)NC1(C(=O)O)CCN(C(=O)c2ccc(-c3cccc(Cl)c3)cc2)CC1 | enzyme activity, inhibitor | 10 µM |  | activity vs control | 84% |
| CN1CC[C@@H](COc2cnc(C#N)cc2-c2ccn3nc(NC(=O)C4CC4)cc3c2)C1 | enzyme activity, inhibitor | 1 µM |  | inhibition | 5% |
| CNC(=O)C1CCN(c2cc(C)c(F)cc2NC(=O)c2ccc(-c3cc(O)ccc3C)c(C)c2)CC1 | binding, competition with immobilised ligand | 1 µM |  | remaining binding | 100% |
| CC(C)=CC1OC(C)(C)C2C=C3C(=O)C(Cl)=CC(O)C3C3C(O)C4OC4C(=O)C132 (centres unmarked) | cell-free assay, competition with immobilised ligand | 10 µM |  | remaining binding | 73% |
| C=CC(=O)N1Cc2nc(-c3cc(-c4cc(Cl)cnc4Cl)c(F)cc3F)n(-c3ccncn3)c2C1 | cell-free assay, inhibitor | 1 µM |  | inhibition | 7.7% |
| COc1cc(Nc2nc(C)cc(-c3cnn4nc(OC)ccc34)n2)cc(C(F)(F)F)c1 | inhibitor | 1 µM | reference: control | remaining activity | 75% |
| CCn1cc(C(=O)O)c(=O)c2c(N)c(F)c(NC3CCCCC3)cc21 | kinase activity | 0.1 µM, added: ATP at Km |  | inhibition | -9.5% |
| NC(=O)C[C@H]1CCc2sc3ncnc(O[C@H]4CC[C@H](N5CCOCC5)CC4)c3c21 | enzyme activity, inhibitor | 10 µM |  | inhibition | 11% |
| CNC1C[S+]2CC[S+]3CC[S+](C1)[Ru-4]321([N]=C=S)[n]2c3ccc(OC)cc3c3c4c(c5cc(F)c[n+]1c5c32)C(=O)NC4=O (centres unmarked) | KinomeScan | 0.1 µM | reference: untreated | remaining binding | 4.4% |
| Nc1ncc(-c2cc(-c3cnn(CC(F)(F)F)c3)ncc2F)nc1C(=O)NC1CNCC(F)C1 (centres unmarked) | enzyme activity | 1 µM | reference: DMSO control | remaining activity | 103% |
| NC(=O)[C@@H](O)C[C@H]1CCc2sc3ncnc(O[C@H]4CC[C@H](N5CCOCC5)CC4)c3c21 | enzyme activity, inhibitor | 10 µM |  | inhibition | 12% |
| CNC(=O)C[C@H](Cc1ccc(C#N)cc1)NC(=O)c1cc(-c2ccc(CN[C@H](C)c3ccc(C)cc3)o2)ccc1Cl | enzyme activity, inhibitor | 1 µM |  | activity vs control | 100% |
| Cc1nc2c(F)cc(-c3nc(Nc4ccc(CNC(=O)CCCCCCC(=O)NO)cc4)ncc3F)cc2n1C(C)C | enzyme activity, inhibitor | 1 µM |  | inhibition | 0% |
| Nc1ncc2c(n1)-c1c([nH]c3ccc(C4=CCOCC4)cc13)CCC2 | binding, competition with immobilised ligand | 1 µM |  | remaining binding | 72% |
| CCN1CCN(Cc2ccc(C(=O)Nc3ccc(C)c(NCc4cnc5[nH]ccc5c4OC)c3)cc2C(F)(F)F)CC1 | binding, competition with immobilised ligand | 1 µM |  | remaining binding | 71% |
| C=CC(=O)N1CCc2ccc(-n3c(=O)ccc4cnc5ccc(-c6cnn(C)c6)cc5c43)cc21 | KINOMEscan | 1 µM | reference: DMSO control | remaining binding | 95% |
| COc1c(Cl)cccc1Nc1c(-c2ccncc2C#C[C@@]2(C)CCCN2C(=O)/C=C/CN(C)C)[nH]c2c1C(=O)NCC2 | binding, competition with immobilised ligand | 3 µM |  | remaining binding | 92% |
| C=CC(=O)N1CCCC(n2c(=O)c3ncccc3n(Cc3ccc(Oc4ccccc4)cc3)c2=O)C1 (centres unmarked) | cell-free assay, competition with immobilised ligand | 1 µM |  | remaining binding | 87% |
| CN1CCN(Cc2ccc(-c3ccc(CO[C@H]4CCC[C@@H]4NC(=O)c4cc(-c5cnn(C)c5)cnc4N)cc3)cc2)CC1 | enzyme activity, inhibitor | 0.1 µM |  | inhibition | -4% |
| COc1cc(Nc2nccc(-c3cnn4nc(OC)ccc34)n2)cc(C(F)(F)F)c1 | binding, competition with immobilised ligand | 1 µM |  | remaining binding | 86% |
| Cc1cnc2nc1Nc1cccc(c1)COC/C=C/COCc1cc(ccc1OCCN1CCOCC1)N2 | binding | 0.1 µM |  | remaining binding | 94% |
